# Results pooled from the literature.
# A part holds a random share of what one study measured. Positions count from the first letter of the parent shown.

# Study 1 — technique: protein-binding microarray; form: double-stranded DNA, one strand shown; medium: in vitro; tested at: 940 nM top; notes: 60-bp whole probe; added: salmon DNA 0.4 mg/ml; baseline: random background probes; direction: higher = stronger binding; all sequences stand within: GCCTAGCAC … GTCTTGATTCGCTTGACGCTGCTG
# Target: Interferon regulatory factor 5, full length, phosphomimetic (IRF5, Homo sapiens, UniProt Q13568-2, residues 1-514, S451D/S453D/S456D/S462D)
Oligonucleotide,fitted relative affinity [z-score]
TCAAGTTTTCCTATGTCACTGTGCTAG,0.956
CTAGGTTTCCTTCTCCTTTAGTGCTAG,1.33
ATATATATCATTTAATTATAGTGCTAG,0.464
GACGGTATCGTACTGGGGACGTGCTAG,1.61
GACGGTTGCGGTATCGGGACGTGCTAG,2.2
GACGGTCTCGCACTGGGGACGTGCTAG,0.0946
TCATTTTTTTCTATATGACTGTGCTAG,1.57
TTAGATATCAGACTGGTTTAGTGCTAG,0.105
GCCGGTCTCGGTCTCGGGACGTGCTAG,5.03
GACGGAATGGGTATCGGGACGTGCTAG,0.763
TCACATATACACTGTGTATCTGTGCTA,0.24
GACGGTTTCCTTTCTCTGACGTGCTAG,2.1
TCAGCTTTCATTTATTTACTGTGCTAG,1.63

# Study 2 — target: CCNA2, cyclin fold, Cln2 fusion (human); technique: yeast growth competition, sequencing; medium: yeast; notes: strong parent motif; baseline: not given; direction: higher = stronger binding
# Starting sequence: RRM2 docking peptide (human); SKTARRIFQEPTE
Change,normalised enrichment score
SKTARRIFQEATE [P11A],0.66
AKTARRIFQEPTE [S1A],0.892
SKTARRIFQEPTA [E13A],0.871
SKTARRIFQEPAE [T12A],0.788
SKTARAIFQEPTE [R6A],0.348
SKAARRIFQEPTE [T3A],0.759

# Study 3 — technique: aptamer microarray, sandwich; form: DNA with 2'F-ANA; medium: in vitro; tested at: 200 nM; added: Cy3 exosite-II aptamer, 400 nM; direction: higher = stronger binding; oligonucleotide: GGTTGGTGTGGTTGG
# Target: Prothrombin, mature alpha-thrombin (F2, Homo sapiens, UniProt P00734)
# Notes: whole 15-mer aptamer, many near background
Modification,mean fluorescence intensity
2'F-ANA at 2 4 5 6 7 8 9 10 11 12 13 14 15,51.1 a.u.
2'F-ANA at 2 8 9 11,415 a.u.
2'F-ANA at 1 4 7 9 10 11 13 14 15,45.3 a.u.
2'F-ANA at 2 5 7 8 9 12 13 14 15,55 a.u.
2'F-ANA at 2 3 4 7 8 10,321 a.u.
2'F-ANA at 2 4 11 14 15,106 a.u.
2'F-ANA at 2 3 4 6 8 12 14 15,315 a.u.
2'F-ANA at 1 3 5 6,62 a.u.
2'F-ANA at 5 6 7 8 9 10 11 12 15,50.5 a.u.
2'F-ANA at 1 6 9 10 11 12 14,48.7 a.u.
2'F-ANA at 4 5 6 7 8 9 10 14,46.3 a.u.
2'F-ANA at 3 4 5 9 12 14 15,55 a.u.
2'F-ANA at 2 3 4 5 7 8 9 10 12 13 14 15,55.5 a.u.
2'F-ANA at 1 2 7 10 11 12 15,66.7 a.u.
2'F-ANA at 1 4 7 8 9 10 11 12 13 15,55.3 a.u.
2'F-ANA at 2 4 5 6 7 8 10 14,49.9 a.u.
2'F-ANA at 1 2 3 6 8 9 14 15,175 a.u.
2'F-ANA at 1 4 6 8 9 11 12 14,52.1 a.u.
2'F-ANA at 4 6 9 10 12,109 a.u.
2'F-ANA at 2 4 5 7 9 10 11 13,56.7 a.u.
2'F-ANA at 2 5 6 12 14 15,46 a.u.
2'F-ANA at 1 2 8 11 12 14 15,70 a.u.
2'F-ANA at 1 6 10 12,70.7 a.u.
2'F-ANA at 3 4 6 9 10 11 15,210 a.u.
2'F-ANA at 1 3 4 7 12 13,318 a.u.

# Study 4 — technique: Spec-seq; form: double-stranded DNA, one strand shown; medium: in vitro; tested at: not given; notes: whole probe, mean of replicates; baseline: not given; direction: lower = stronger binding; all sequences stand within: GAGTCGTCTCGTCAGCAC … CCGTAGAGCACTCAGGTC
# Target: Transcription factor SOX-2, HMG box (Sox2, Mus musculus, UniProt P48432, residues 41-119)
# UniProt P48432, sequence (41-119, looked up): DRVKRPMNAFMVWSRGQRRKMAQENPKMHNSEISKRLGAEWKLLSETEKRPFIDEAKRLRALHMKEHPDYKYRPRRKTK
Oligonucleotide,relative binding energy
CCTCGTT,0.937 ln ratio
CATCTTT,0.435 ln ratio
ATTAGTT,-0.321 ln ratio
TTGTGTT,-0.686 ln ratio
AACAGTT,-1.01 ln ratio
CATAACC,0.221 ln ratio
CCACGTT,1.13 ln ratio
CATCGGC,0.583 ln ratio
CACCGTT,0.784 ln ratio
TAGTGTT,-0.591 ln ratio
GGCAGTT,1.06 ln ratio
AGCAGTT,0.623 ln ratio
ATGAGTT,0.674 ln ratio
CATACTA,-0.188 ln ratio
CATTGAT,-1.66 ln ratio
CATTTGG,0.148 ln ratio

# Study 5 — technique: DHFR PCA, deep sequencing; medium: yeast; added: (+)-ABA 1.4 µM; baseline: wild-type fitted maximum; direction: higher = stronger binding
# Target: ABI1, truncated, D143A, DHFR fusion (Arabidopsis thaliana)
# Notes: methotrexate growth selection, single substitutions
# Starting sequence: PYL1, truncated, DHFR fusion (Arabidopsis thaliana); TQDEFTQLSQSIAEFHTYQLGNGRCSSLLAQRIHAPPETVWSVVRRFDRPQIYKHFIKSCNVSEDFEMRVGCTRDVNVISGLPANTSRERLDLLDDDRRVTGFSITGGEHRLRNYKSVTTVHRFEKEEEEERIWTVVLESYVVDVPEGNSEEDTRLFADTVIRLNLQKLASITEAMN
Change,relative binding score
S11N,17.7%
E174W,-11.2%
S87F,15.8%
R46K,9.14%
N149I,21.1%
D97E,78.9%
E152N,27.9%
D3E,47.7%
S80A,1.38%
G71L,0.853%
K126Y,62.8%
I79P,-8.04%
N22H,70.5%

# Study 6 — technique: EMSA with sequencing; form: double-stranded DNA, one strand shown; medium: in vitro; tested at: 10 and 20 nM; baseline: negative control set to 0; direction: higher = stronger binding
# Target: Hepatocyte nuclear factor 3-alpha (Foxa1, Mus musculus, UniProt P35582, residues 1-468, full length assumed)
# UniProt P35582, sequence (whole entry, looked up): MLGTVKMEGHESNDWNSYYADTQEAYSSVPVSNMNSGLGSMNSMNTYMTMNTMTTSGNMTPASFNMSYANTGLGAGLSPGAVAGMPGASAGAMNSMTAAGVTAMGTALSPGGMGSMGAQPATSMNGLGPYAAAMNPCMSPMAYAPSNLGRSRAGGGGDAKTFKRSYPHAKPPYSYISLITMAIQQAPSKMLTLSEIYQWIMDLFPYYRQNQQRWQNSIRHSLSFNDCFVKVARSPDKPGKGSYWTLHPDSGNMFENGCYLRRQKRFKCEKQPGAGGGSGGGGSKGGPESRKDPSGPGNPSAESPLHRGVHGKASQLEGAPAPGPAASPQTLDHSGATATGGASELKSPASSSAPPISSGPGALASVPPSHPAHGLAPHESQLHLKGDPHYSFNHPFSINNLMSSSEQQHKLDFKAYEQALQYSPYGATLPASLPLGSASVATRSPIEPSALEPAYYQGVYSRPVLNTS
# Notes: whole designed probe, mean of two concentrations, ends assumed
# All sequences stand within: GTGAGCGGTGCCCATTGATGGGGAAC … TTTCACTGGGATCGTGGGGAC
Oligonucleotide,normalised bound fraction [ratio]
TGAACAAAAAAAACAAAAATAAAAAACAAAAACAAGAGCATACAGTTTCAAAAGCACACTGGATGGAAATGTCAGATAGTGTCAGAAAAACATGTTTACTTTGTGAAGAAAGAGATTATTTATACTTTGTGGGGACAAGTTAATTATCCCCTGCCTTAGAGGAGATGTCATTCCATTCTAGATATTTTTGGTA,0.43
ATCTTCCCCCTCTTCCTTGCCCCACCAGCTCACCTACGGGGGTTATTTGCACAAAGGAAAATAAATAAAGCCGGCATTCGTTAACCCTCTTCTGGCGCAAACTGCTGTTTGCTCTGGATGAATCATGGTCCTTTGGCGAGGCGTGGCTCCGGGAGAGCAAAGCACCGTGTCAGGGCCATGATCCGGGGTGGCC,0.379
TGATGAGAAACATGATAATTATTTAGTCTGAAAGGATCTTCTCCAATAATTTTTTTTTGTCGTGATACATTCTCCACCCCCTCCTGACTAAATGCAAACAAACCTAAATTGAGGGAAATTCTATGCAATACCTAACCATTATTCATCAAATGTACACAGGAGTACAGTGACACAATCATGGTTCACTGTAACC,0.346
AATTACAAGTTCTATGACCTTATTGTAAGGTGTCTCAAACTTTTTTGAATTGGGAGAGTACATTTAGAGTAACCAAACTGAGTCAGTGCAAAGTCATCTGAGCTGGGCAGATAGCCGAGCCAGGAGAAATCTCAACTGGATGGTGCCAGAACTGGTAGGGGAAGCCTCTAGTACTGCTACCAAATATATTGTG,-0.0501
GGTTAAAAAAACATACAAGGATCCAATCCCCCCGTTGGAGACACACAGAGCAACAGTAGGAAGGATACATTTCCAGCAAGCTGTGACTCTTTAAGTAATTTCGTAGGAGGAAGCAAGTGCAGATTAAAGTACAGTAACTGTGAGGCATATGACTGCAGTCATGTTTATGAGTGACTTATAAAGAGAGATTTCA,0.00112
AAGAAAGAAATTTCCCATCCAGATTACAAAATTATTCCTGGTCAAAGGGGCCTTTATAAATGCAATTTCCTAATCCAATCAAAAGACCACAAAAGTAAACAGGGAATTTCTCTGCTTTGGTTTAAAATTGTTTGTTTAAAATTACATGTGTGTGTGTAGGTATATACACATATATAAATATATTATAGACACT,0.431
ATCTTCCCCCTCTTCCTTGCCCCACCAGCTCACCTACGGGGGTTATTTGCAGATAGGAAAATAAATAAAGCCGGCATTCGTTAACGCAGTTCTGGCGCAAACTGCTGTTTGCTCTGCATCTAACATGGTCCTTACGCGAGGCGTGGCTCCGGGAGAGCAAAGCACCGTGTCAGGCGCATGATCCGGGGTGGCC,0.36
ATACAGCCTAGAACTCCTGGGCTCAAAAGATCCTCCCACCTCAGCCTCCTGAGTAGCTAGGACTACAGAGGCGCATGCCAACATGTGTGGCAATATTTACTTATTTATTTAGAAAAGAGGTCTCGCTTTGTTGCCCAGGCTAGTGTGCAGTGGCGCAATCTTGGCTCACTGCAACCTCTTCCTCCCAAGTTCA,0.415

# Other studies, line by line
Molecule,target,test,system,setting,how to read,quantity,result
"PhoQ, residues 284 288 289 292 302 303 NLCILV","PhoP, residues 12 14 15 18 19 NMSFL (Escherichia coli, UniProt P23836)","Sort-seq, item: YFP reporter",E. coli,"PhoQ-PhoP variant library, added: 10 µM Mg2+","baseline: high Mg2+ state, higher = stronger signaling",fold induction,10.6

# Some of these lines once more (study 3):
Modification,mean fluorescence intensity
2'F-ANA at 2 4 5 6 7 8 10 14,49.9 a.u.
2'F-ANA at 1 2 3 6 8 9 14 15,175 a.u.
2'F-ANA at 1 4 6 8 9 11 12 14,52.1 a.u.
2'F-ANA at 4 6 9 10 12,109 a.u.
2'F-ANA at 2 4 5 7 9 10 11 13,56.7 a.u.
2'F-ANA at 2 5 6 12 14 15,46 a.u.
2'F-ANA at 1 2 8 11 12 14 15,70 a.u.
2'F-ANA at 1 6 10 12,70.7 a.u.
